Measurements gathered from unrelated publications.
Numbered parts are unrelated; each lists some results of a single study. Values joined by “and” are separate records of one study, mostly repeats; a detail may differ.
Sequence of UniProt P45983 (whole entry, looked up): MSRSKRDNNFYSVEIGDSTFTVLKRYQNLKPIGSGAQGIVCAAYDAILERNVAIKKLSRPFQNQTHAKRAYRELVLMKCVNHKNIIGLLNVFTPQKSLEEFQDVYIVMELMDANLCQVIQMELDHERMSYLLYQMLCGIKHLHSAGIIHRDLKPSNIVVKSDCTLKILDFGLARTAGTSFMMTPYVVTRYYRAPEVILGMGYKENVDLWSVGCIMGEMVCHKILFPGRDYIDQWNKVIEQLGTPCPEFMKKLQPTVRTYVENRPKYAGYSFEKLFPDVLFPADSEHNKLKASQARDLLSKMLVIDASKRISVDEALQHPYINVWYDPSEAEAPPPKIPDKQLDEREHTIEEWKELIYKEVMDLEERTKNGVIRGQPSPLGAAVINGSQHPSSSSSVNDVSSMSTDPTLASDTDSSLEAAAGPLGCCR
Sequence of UniProt O00238 (whole entry, looked up): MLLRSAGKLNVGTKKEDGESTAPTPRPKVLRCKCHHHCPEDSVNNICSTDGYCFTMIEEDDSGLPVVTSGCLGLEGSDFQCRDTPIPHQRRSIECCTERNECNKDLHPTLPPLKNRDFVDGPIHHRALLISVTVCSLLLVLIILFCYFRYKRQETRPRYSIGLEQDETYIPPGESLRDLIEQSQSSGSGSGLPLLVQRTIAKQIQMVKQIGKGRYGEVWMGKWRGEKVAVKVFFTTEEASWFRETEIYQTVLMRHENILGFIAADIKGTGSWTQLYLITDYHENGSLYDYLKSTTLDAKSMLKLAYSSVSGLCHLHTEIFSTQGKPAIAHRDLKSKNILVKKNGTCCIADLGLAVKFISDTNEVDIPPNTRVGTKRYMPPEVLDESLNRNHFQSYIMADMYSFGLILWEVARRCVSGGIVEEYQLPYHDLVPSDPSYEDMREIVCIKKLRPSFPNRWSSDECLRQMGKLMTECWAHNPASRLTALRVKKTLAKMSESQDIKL
Sequence of UniProt P57059 (whole entry, looked up): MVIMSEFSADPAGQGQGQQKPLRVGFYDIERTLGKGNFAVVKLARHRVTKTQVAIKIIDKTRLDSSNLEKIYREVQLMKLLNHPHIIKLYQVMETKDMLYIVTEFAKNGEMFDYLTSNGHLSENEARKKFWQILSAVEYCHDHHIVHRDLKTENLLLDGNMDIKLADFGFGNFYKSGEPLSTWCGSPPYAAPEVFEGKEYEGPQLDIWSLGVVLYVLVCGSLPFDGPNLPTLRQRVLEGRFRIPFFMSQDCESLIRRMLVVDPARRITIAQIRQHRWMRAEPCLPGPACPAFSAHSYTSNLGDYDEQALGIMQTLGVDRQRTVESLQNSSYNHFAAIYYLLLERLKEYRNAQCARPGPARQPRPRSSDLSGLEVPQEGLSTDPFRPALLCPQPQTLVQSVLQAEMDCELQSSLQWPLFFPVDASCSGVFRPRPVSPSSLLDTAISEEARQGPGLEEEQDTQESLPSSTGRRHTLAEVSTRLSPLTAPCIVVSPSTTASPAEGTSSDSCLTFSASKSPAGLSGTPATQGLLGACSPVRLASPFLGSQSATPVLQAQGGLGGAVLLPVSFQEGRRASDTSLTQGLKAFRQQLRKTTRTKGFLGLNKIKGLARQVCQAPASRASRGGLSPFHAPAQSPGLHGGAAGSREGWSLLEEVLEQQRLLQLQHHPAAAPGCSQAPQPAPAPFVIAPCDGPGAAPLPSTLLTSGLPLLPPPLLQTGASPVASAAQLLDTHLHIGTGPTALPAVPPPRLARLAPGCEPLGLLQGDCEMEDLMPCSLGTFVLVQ
Sequence of UniProt O14965 (whole entry, looked up): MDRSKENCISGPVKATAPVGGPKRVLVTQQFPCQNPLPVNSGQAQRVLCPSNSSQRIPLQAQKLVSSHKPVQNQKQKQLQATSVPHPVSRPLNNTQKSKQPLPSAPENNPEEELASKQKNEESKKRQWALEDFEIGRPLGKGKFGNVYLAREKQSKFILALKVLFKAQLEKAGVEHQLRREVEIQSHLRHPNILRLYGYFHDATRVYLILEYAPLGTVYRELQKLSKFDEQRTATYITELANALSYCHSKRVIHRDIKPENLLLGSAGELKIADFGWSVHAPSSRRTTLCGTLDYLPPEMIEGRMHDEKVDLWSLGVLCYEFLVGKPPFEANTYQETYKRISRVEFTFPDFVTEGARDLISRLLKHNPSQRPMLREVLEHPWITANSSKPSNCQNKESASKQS
Sequence of UniProt P10721 (whole entry, unmodified, looked up): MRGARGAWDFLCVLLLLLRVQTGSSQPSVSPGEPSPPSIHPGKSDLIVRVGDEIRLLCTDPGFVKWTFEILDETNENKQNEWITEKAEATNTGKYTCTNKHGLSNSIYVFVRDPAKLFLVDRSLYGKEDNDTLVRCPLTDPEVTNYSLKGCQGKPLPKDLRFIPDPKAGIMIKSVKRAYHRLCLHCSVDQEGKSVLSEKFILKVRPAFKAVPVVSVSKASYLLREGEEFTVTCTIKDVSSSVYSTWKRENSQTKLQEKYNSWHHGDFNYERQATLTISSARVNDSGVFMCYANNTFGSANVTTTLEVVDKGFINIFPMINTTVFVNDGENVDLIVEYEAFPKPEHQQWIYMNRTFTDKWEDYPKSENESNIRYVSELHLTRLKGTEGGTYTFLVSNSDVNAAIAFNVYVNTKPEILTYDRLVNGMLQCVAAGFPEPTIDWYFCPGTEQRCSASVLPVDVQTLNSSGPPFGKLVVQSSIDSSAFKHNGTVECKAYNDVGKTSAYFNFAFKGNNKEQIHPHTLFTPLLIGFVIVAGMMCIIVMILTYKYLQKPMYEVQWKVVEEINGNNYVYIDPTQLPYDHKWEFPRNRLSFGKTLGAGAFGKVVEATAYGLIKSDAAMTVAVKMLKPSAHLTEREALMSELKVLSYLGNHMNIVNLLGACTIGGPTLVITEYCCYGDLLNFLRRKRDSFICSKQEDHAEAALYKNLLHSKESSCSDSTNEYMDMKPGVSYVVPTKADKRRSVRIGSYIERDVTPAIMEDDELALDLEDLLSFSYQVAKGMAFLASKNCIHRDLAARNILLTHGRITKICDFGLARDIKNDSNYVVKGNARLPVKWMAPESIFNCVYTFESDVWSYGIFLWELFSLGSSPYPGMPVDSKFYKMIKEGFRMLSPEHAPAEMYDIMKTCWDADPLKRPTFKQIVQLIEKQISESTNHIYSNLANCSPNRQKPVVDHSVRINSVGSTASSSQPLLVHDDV
Sequence of UniProt O94768 (whole entry, looked up): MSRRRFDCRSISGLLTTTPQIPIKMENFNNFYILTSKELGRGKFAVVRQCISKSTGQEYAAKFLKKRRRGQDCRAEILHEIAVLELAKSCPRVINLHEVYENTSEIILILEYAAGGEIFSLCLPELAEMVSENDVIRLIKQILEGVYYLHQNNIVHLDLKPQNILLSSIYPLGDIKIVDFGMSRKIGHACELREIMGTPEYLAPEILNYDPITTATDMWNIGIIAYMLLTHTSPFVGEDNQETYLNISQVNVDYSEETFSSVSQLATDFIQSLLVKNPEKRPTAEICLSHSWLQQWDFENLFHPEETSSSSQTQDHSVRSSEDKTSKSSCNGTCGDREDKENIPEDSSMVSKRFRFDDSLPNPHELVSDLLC
Sequence of UniProt Q14164 (whole entry, looked up): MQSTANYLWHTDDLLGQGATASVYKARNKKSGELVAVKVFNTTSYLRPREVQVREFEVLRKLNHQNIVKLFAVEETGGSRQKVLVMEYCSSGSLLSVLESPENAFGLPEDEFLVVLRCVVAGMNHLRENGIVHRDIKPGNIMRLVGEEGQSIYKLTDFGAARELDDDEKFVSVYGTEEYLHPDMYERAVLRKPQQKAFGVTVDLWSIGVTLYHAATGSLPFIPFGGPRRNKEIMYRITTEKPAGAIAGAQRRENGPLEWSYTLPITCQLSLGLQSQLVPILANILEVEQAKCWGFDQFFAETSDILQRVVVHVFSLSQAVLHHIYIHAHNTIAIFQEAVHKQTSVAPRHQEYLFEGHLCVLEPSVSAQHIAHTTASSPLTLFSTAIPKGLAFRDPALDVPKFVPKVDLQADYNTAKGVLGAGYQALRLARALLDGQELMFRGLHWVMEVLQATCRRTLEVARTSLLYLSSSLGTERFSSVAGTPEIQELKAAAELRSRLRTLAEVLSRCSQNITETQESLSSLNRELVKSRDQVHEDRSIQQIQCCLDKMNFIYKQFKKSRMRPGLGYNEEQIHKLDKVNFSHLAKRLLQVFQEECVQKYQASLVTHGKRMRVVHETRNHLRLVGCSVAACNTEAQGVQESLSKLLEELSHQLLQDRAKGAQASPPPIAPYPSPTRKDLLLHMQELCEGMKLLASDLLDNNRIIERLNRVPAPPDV
Sequence of UniProt Q8TDC3 (whole entry, looked up): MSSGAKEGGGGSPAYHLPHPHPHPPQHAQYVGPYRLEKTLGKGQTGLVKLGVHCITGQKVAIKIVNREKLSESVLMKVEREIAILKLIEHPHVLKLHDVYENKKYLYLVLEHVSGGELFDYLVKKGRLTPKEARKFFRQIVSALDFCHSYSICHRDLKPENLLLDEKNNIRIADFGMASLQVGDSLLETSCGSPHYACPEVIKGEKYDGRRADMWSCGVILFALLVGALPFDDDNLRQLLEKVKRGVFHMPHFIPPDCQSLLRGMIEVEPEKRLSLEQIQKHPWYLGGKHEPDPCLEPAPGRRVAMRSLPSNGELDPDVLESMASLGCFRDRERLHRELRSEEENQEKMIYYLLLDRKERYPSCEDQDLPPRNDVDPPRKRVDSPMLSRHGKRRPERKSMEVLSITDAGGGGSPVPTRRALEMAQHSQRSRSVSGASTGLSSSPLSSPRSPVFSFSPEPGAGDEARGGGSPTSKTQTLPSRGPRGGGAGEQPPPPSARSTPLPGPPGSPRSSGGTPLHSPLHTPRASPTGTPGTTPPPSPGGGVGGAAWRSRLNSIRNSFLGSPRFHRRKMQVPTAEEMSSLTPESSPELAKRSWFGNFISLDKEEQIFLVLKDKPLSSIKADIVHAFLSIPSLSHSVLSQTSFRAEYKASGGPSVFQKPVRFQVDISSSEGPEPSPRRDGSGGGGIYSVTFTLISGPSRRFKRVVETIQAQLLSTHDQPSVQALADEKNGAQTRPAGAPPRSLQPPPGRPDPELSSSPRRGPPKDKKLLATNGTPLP

Block 1 — cell line: mouse MPNST tumor cells; method: high-content nuclear imaging; measured: cell number; concentration: 10 µM; time: 12 h; setting: mean of 2 replicates; reference: plate mean; direction: higher = more cells
Compound	nuclei count
CCOc1ccc(-n2c(C(C)N(Cc3cccnc3)C(=O)Cc3ccc(F)c(C(F)(F)F)c3)nc3ncccc3c2=O)cc1 (centres unmarked)	1.66 z-score
C#CC1(O)CCC2C3CCc4cc(OC)ccc4C3CCC21C (centres unmarked)	0.279 z-score
Cc1cnc(-c2cnc(NCCNc3ccc(C#N)cn3)nc2-c2ccc(Cl)cc2Cl)[nH]1	-0.467 z-score
CCCN1CCCC[C@H]1C(=O)Nc1c(C)cccc1C	1.55 z-score
CCCCC1=NC2(CCCC2)C(=O)N1Cc1ccc(-c2ccccc2-c2nnn[nH]2)cc1	0.83 z-score and 0.0723 z-score
CCCCC(F)(F)[C@@]1(O)CC[C@H]2[C@@H](CC(=O)[C@@H]2CCCCCCC(=O)O)O1	0.514 z-score
CC1NC(=O)NC1=O (centres unmarked)	1.55 z-score and 0.954 z-score

Block 2 — organism: Sarcocystis neurona; read-out: parasite growth; concentration: 10 µM; time: 96 h; setting: first screen; reference: untreated
SMILES	log2 fold change
C[C@H]1COc2c(C3(N)CC3)c(F)cc3c(=O)c(C(=O)O)cn1c23	-0.03
CCN1CCC[C@H]1CNC(=O)c1cc(S(N)(=O)=O)ccc1OC	0.22
Cc1cn([C@H]2C=C[C@@H](CO)O2)c(=O)[nH]c1=O	0.17
CC(C)OC(=O)CCC/C=C\C[C@@H]1[C@@H](CC[C@@H](O)CCc2ccccc2)[C@H](O)C[C@@H]1O	0.15
COCC1=C(C(=O)OC(C)OC(=O)OC(C)C)N2C(=O)[C@@H](NC(=O)/C(=N\OC)c3csc(N)n3)[C@H]2SC1 (some centres unmarked)	-0.15

Block 3 — method: phase 2a clinical trial
Structure (SMILES): CC(C)n1cnc(-c2ccc(F)cc2)c1-c1ncc(C(=O)Nc2ccc(N3CCN(C)CC3)cc2)[nH]1
Host: patients with idiopathic pulmonary fibrosis
assay	setting	patients with treatment-emergent adverse events [%]
measured: left bundle branch block	60 mg once daily, Grade 5	0
measured: protein urine present	dose not given, Grade 5, all drug arms total	0
measured: left ventricular dysfunction	dose not given, Grade 5, all drug arms	0
measured: gastro-oesophageal reflux disease	dose not given, Grade 5, all drug arms total	0
measured: C-reactive protein increased	30 mg once daily, Grade 3	0
measured: interstitial lung disease	30 mg once daily, Grade 5	0
measured: drug-induced liver injury	60 mg once daily, Grade 2	0
measured: benign prostatic hyperplasia	dose not given, Grade 4, maximum intensity, all drug arms total	0
measured: hepatic function abnormal	30 mg once daily, Grade 5	0

Block 4 — concentration: 1 µM
SMILES: CO[C@@H](C)c1c(Nc2ccc([C@H](N(C)C(=O)C3CCS(=O)(=O)CC3)C(F)(F)F)cc2)cnc2cc(Cl)nn12
target	assay	remaining binding [%]
Tyrosine-protein kinase Lck (LCK, Homo sapiens, UniProt P06239)	cell-free assay, competition with immobilised ligand	83
Mast/stem cell growth factor receptor Kit (KIT, Homo sapiens, UniProt P10721, A829P)	cell-free assay, competition with immobilised ligand	100
Mitogen-activated protein kinase 8 (MAPK8, Homo sapiens, UniProt P45983)	cell-free assay, competition with immobilised ligand	86
Serine/threonine-protein kinase BRSK1 (BRSK1, Homo sapiens, UniProt Q8TDC3)	cell-free assay, competition with immobilised ligand	78
Serine/threonine-protein kinase PAK 4 (PAK4, Homo sapiens, UniProt O96013)	cell-free assay, competition with immobilised ligand	95
Aurora kinase A (AURKA, Homo sapiens, UniProt O14965)	cell-free assay, competition with immobilised ligand	100
Serine/threonine-protein kinase mTOR (MTOR, Homo sapiens, UniProt P42345)	cell-free assay, competition with immobilised ligand	100
Dual specificity mitogen-activated protein kinase kinase 7 (MAP2K7, Homo sapiens, UniProt O14733)	cell-free assay, competition with immobilised ligand	100
Ribosomal protein S6 kinase alpha-5, C-terminal kinase domain (RPS6KA5, Homo sapiens, UniProt O75582)	cell-free assay, competition with immobilised ligand	88
Serine/threonine-protein kinase SIK1 (SIK1, Homo sapiens, UniProt P57059)	competition binding	87
Serine/threonine-protein kinase WNK2 (WNK2, Homo sapiens, UniProt Q9Y3S1)	cell-free assay, competition with immobilised ligand	98
Inhibitor of nuclear factor kappa-B kinase subunit epsilon (IKBKE, Homo sapiens, UniProt Q14164)	cell-free assay, competition with immobilised ligand	100
Bone morphogenetic protein receptor type-1B (BMPR1B, Homo sapiens, UniProt O00238)	cell-free assay, competition with immobilised ligand	100
Serine/threonine-protein kinase 17B (STK17B, Homo sapiens, UniProt O94768)	cell-free assay, competition with immobilised ligand	99

Repeated from above (block 1):
Compound	nuclei count
CCOc1ccc(-n2c(C(C)N(Cc3cccnc3)C(=O)Cc3ccc(F)c(C(F)(F)F)c3)nc3ncccc3c2=O)cc1 (centres unmarked)	1.66 z-score
C#CC1(O)CCC2C3CCc4cc(OC)ccc4C3CCC21C (centres unmarked)	0.279 z-score
Cc1cnc(-c2cnc(NCCNc3ccc(C#N)cn3)nc2-c2ccc(Cl)cc2Cl)[nH]1	-0.467 z-score
CCCN1CCCC[C@H]1C(=O)Nc1c(C)cccc1C	1.55 z-score
CCCCC1=NC2(CCCC2)C(=O)N1Cc1ccc(-c2ccccc2-c2nnn[nH]2)cc1	0.83 z-score and 0.0723 z-score
CCCCC(F)(F)[C@@]1(O)CC[C@H]2[C@@H](CC(=O)[C@@H]2CCCCCCC(=O)O)O1	0.514 z-score
